# Measurements collected from several papers.
# Every numbered part comes from another study and shows a few of its results, in no order. Several values in a cell are separate wells, animals, samples, runs or records.
# Sequence of UniProt P61075 (whole entry, looked up): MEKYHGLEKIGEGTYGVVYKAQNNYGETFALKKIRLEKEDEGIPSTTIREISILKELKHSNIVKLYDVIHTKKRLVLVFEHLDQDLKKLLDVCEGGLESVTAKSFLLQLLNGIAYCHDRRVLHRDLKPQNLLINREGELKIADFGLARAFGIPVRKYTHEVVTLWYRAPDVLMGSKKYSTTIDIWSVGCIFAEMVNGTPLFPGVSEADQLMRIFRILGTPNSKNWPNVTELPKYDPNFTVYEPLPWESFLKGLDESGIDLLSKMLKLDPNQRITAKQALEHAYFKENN
# Sequence of UniProt P9WI81 (whole entry, looked up): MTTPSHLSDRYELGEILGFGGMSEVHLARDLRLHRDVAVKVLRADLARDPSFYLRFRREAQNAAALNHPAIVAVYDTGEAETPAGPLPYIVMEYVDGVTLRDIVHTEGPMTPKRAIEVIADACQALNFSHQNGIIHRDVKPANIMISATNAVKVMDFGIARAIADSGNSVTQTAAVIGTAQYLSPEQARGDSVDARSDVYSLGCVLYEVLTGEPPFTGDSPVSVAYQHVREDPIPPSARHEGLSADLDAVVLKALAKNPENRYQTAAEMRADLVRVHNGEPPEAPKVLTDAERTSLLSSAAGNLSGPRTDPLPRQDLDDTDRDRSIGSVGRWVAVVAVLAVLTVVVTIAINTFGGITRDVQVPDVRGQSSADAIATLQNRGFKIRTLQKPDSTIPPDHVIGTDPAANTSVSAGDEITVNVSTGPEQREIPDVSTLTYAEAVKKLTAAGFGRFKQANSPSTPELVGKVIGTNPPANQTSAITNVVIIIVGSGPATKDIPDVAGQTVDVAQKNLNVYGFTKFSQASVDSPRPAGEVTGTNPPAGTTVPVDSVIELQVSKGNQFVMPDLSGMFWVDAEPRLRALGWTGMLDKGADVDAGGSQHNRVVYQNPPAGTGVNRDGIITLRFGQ

# Block 1 — cell line: HEK-293T-ACE2; tested at: concentration not given; reference: vehicle
SMILES,cell number [%]
NC(=O)CCC(N)C(=O)O (racemic),101
[I-].[K+],103
Cl.Cn1c(CCCC(=O)O)nc2cc(N(CCCl)CCCl)ccc21,99
O=C(CCCCCCC(=O)Nc1ccccc1)NO,86.4
CN(C)CCC(c1ccc(Br)cc1)c1ccccn1.O=C(O)/C=C\C(=O)O (centres unmarked),105
Cl.N=C(N)NN,101
C[C@]12CC[C@@H]3c4ccc(O)cc4CC[C@H]3[C@@H]1CC[C@@H]2OC(=O)CCC1CCCC1,103
Nc1cccc2c1CN(C1CCC(=O)NC1=O)C2=O (centres unmarked),97.5
O=C(O)CCCN1CCC(O[C@@H](c2ccc(Cl)cc2)c2ccccn2)CC1.O=S(=O)(O)c1ccccc1,101

# Block 2 — method: CCK-8
# Compound: CC(C)S(=O)(=O)c1ccc2nccc(Nc3ccc4sc(C5CCCC5)nc4c3)c2c1.Cl
cell line,conditions,survival
L929 RIPK3-/- reexpressing RIPK3 K51A/R69H,"50 µM, added: zVAD",63.9% and 64.2% and 40.9% and 61%
L929 RIPK3-/- reexpressing RIPK3 K51A/R69H,12.5 µM,98.8% and 92.3% and 94.2% and 84.4%
L929 RIPK3-/- reexpressing RIPK3 K51A,"50 µM, added: zVAD",68.5% and 67.6% and 70.4% and 70.5% and 71%
L929 RIPK3-/- reexpressing RIPK3 K51A/R69H,50 µM,64.7% and 64.2% and 40.9% and 64%
L929 RIPK3-/- reexpressing RIPK3 K51A,3.125 µM,95% and 93% and 94.2% and 96.6%
L929 RIPK3-/- reexpressing RIPK3 K51A/R69H,3.125 µM,83.9% and 97.6% and 82.1% and 86.5%
L929 RIPK3-/- reexpressing RIPK3 K51A,6.25 µM,93.3% and 95% and 92.6% and 98.3%
L929 RIPK3-/- reexpressing RIPK3 K51A/R69H,25 µM,95.3% and 69.4% and 61.1% and 73.5%

# Single results of other studies
SMILES,tested on,test,conditions,quantity,value
CC1=C(C#N)C(c2ccc3c(c2)c(NC(=O)c2ccccc2C)nn3C)C(C#N)=C(C)N1,"Cyclin-dependent kinase 2 homolog (CRK2, Plasmodium falciparum, UniProt P61075)","cell-free assay, competition with immobilised ligand",1 µM,remaining binding,84%
CC[C@H]1C(=O)N[C@@H](CC(C)C)C(=O)N2CCC[C@@H]2C(=O)N(C)[C@@H](Cc2ccccc2)C(=O)N[C@@H](CC(C)C)C(=O)N(C)[C@H](C)C(=O)N1C,,logD(dd/w) and ALogP,MRN method,lipophilic permeability efficiency,3.62
COc1ccc2c(O[C@@H]3C[C@H]4C(=O)N[C@]5(C(=O)O)CC5/C=C\CCCCC[C@H](NC(=O)OC5CCCC5)C(=O)N4C3)cc(-c3csc(NC(=O)C(C)C)n3)nc2c1C (some centres unmarked),"Serine/threonine-protein kinase PknB (pknB, Mycobacterium tuberculosis, UniProt P9WI81)","cell-free assay, competition with immobilised ligand",1 µM,remaining binding,94%
